Experimental data pooled from the literature.
Compare with care: the assays were run in different laboratories. ± gives the spread as reported.

NCCCS(=O)(=O)O — half-life (human, plasma; oral, 171 mg once daily, day 1, capsule, fasted): 8.99 h
O=C(O)CCC(=O)O.[2H]C([2H])([2H])Oc1cc(C)c2[nH]ccc2c1CN1CC[C@@H](C2CC2)C[C@H]1c1ccc(C(=O)O)cc1 — half-life (human, plasma; 125 mg twice daily, day 10, multiple ascending dose, mean): 32.1 h
C=CC(=O)N(C)CCOc1c(N)ncnc1-c1cc(F)cc(NC(=O)c2ccc(C3CC3)cc2F)c1C — half-life (human, whole blood; oral, 200 mg, single ascending dose, median): 3.22 h
CC(=O)c1cc(C(=O)N[C@@H](C)Cn2ccc(-c3ccc(C#N)c(Cl)c3)n2)[nH]n1 — half-life (human, fasted; oral, 300 mg 14C-darolutamide solution, geometric mean): 10.7 h
CN(C)C(=O)c1cc2cnc(Nc3ccc(N4CCNCC4)cn3)nc2n1C1CCCC1 — half-life (human, all patients, plasma; oral, estimated from accumulation ratio, 24 h dosing interval): 26.6 ± 14 h
Cc1nc(Nc2ncc(C(=O)Nc3c(C)cccc3Cl)s2)cc(N2CCN(CCO)CC2)n1 — half-life (human patients; oral, 85 mg/m^2, day 42): 5 ± 0.8 h
COC(=O)N[C@@H](C)CNc1nccc(-c2cn(C(C)C)nc2-c2cc(Cl)cc(NS(C)(=O)=O)c2F)n1 — half-life (human patients, plasma; oral, 450 mg twice daily, day 14, steady state, median, with: binimetinib 45 mg once daily): 4.43 h
CCCCCCCOc1ccc(CCC(N)(CO)CO)cc1C(F)(F)F.Cl — half-life (healthy human males, plasma; oral, 0.25 mg, day 21): 409 h
CC(C)(C)OC[C@@H]1C(=O)NCCN1C(=O)C[C@H](N)Cc1cc(F)c(F)cc1F — half-life (human, male, plasma; oral, steady state, DP treatment): 25.5 ± 3.77 h
O=C1CC[C@H](N2Cc3cc(N4CCN(CC5CCN(c6ccc([C@@H]7c8ccc(O)cc8CC[C@@H]7c7ccccc7)cc6)CC5)CC4)ccc3C2=O)C(=O)N1 — half-life (human; oral, 200 mg, with: rosuvastatin 10 mg): 29.9 h
Cc1cc(C)c(CNC(=O)c2cc(Cl)c3c(c2C)O[C@@](C)([C@H]2CC[C@H](N(C)C)CC2)O3)c(=O)[nH]1 — half-life (human male, plasma; oral, 200 mg, single dose, [14C]-labelled): 12.7 h
CCN1CCN(Cc2ccc(Nc3ncc(F)c(-c4cc(F)c5nc6n(c5c4)[C@H](C)CCC6)n3)nc2)CC1 — half-life (human, plasma; 50 mg single dose, mean): 38 h
CCCn1cc(C)c2c(=O)[nH]c(-c3cc(S(=O)(=O)N4CCN(CC)CC4)ccc3OCC)nc21 — half-life (LC-MS/MS; human, plasma; 100 mg, crossover trial, alone): 5.71 ± 1.56 h
CC(C)n1nc(-c2ccc3oc(N)nc3c2)c2c(N)ncnc21 — half-life (human patients, plasma; oral, 3 mg once daily, cycle 1 day 15, dose expansion): 8.4 h
C#C[C@]1(CO)O[C@@H](n2cnc3c(N)nc(F)nc32)C[C@@H]1O — half-life (human, plasma; oral, 15 mg, single dose, geometric mean): 51.2 h
CC1(COc2ccc3c(c2)ncn3-c2ccc3cccc(N4CCC(N)CC4)c3n2)COC1 — half-life (human patients, recurrent/progressive HGG or DIPG, serum; oral, 170 mg/m^2, day 1, median): 7.8 h
Cc1nc(-c2ccc(OCC(C)C)c(C#N)c2)sc1C(=O)O — half-life (human; oral, 20 mg once daily, with: verinurad 0 mg): 7.12 h
C#Cc1cccc(Nc2ncnc3cc(OCCOC)c(OCCOC)cc23)c1 — half-life (human patients, plasma; oral): ~20 h
CNC(=O)n1ccc2cc(Oc3ccnc(NC(=O)c4ccc(C5CCN(CCO)CC5)cc4)c3)c(OCCOC)cc21 — half-life (healthy human, plasma; oral, 35 mg, geometric mean, alone): 29.4 h
CCN1CCN(Cc2ccc(Nc3ncc(F)c(-c4cc(F)c5nc(C)n(C(C)C)c5c4)n3)nc2)CC1 — half-life (healthy human, fasted, plasma; oral, 200 mg, 2 x 100 mg capsules): 25.4 h
COC(=O)N[C@H](C(=O)N1CCC[C@H]1c1nc2cc([C@H]3CC[C@H](c4cc5nc([C@@H]6CCCN6C(=O)[C@@H](NC(=O)OC)[C@@H](C)OC)[nH]c5cc4F)N3c3cc(F)c(N4CCC(c5ccc(F)cc5)CC4)c(F)c3)c(F)cc2[nH]1)[C@@H](C)OC — half-life (healthy human subjects, plasma; oral, with: carbamazepine twice daily): 12 h
COc1ncc(-c2nc3c(n2C(C)C)[C@H](c2ccc(Cl)cc2)N(c2cc(Cl)cn(C)c2=O)C3=O)c(OC)n1 — half-life (human, plasma; oral, 120 mg, C2D1, high-dose, median): 13.9 h
O=C(COc1ccc(Cl)cc1)NC12CC(c3nnc([C@H]4C[C@@H](OC(F)(F)F)C4)o3)(C1)C2 — half-life (healthy human volunteers fasted, plasma; oral, 45 mg single dose, geometric mean): 30.4 h
CO[C@H]1C[C@@H]2CC[C@@H](C)[C@@](O)(O2)C(=O)C(=O)N2CCCC[C@H]2C(=O)O[C@H]([C@H](C)C[C@@H]2CC[C@@H](OC(=O)NCCOCCOCCOCCOCCOCCOCCOCCOCCC(=O)N3CCc4cc(Cn5nc(-c6ccc7oc(N)nc7c6)c6c(N)ncnc65)ccc4C3)[C@H](OC)C2)C[C@@H](O)[C@H](C)/C=C(\C)[C@@H](O)[C@@H](OC)C(=O)[C@H](C)C[C@H](C)/C=C/C=C/C=C/1C — half-life (human, plasma; intravenous, 12 mg, cycle 1 day 1, arithmetic mean): 5.4 h
O=C(O)C[C@H](O)C[C@H](O)/C=C/c1c(C2CC2)nc2ccccc2c1-c1ccc(F)cc1 — half-life (OATP1B1/1B3 humanized mouse, plasma; oral, 5 mg/kg, with: silymarin 500 mg/kg oral): 2.9 h
CC(C)(Sc1ccncc1-c1ccc(C#N)c2ccccc12)C(=O)O — half-life (human, plasma; oral, 2.5 mg once daily, with: febuxostat 10 mg): 14.8 h
C[C@H]1[C@H]2N(C(=O)CN(C)N2C(=O)NCc2ccccc2)[C@@H](Cc2ccc(OP(=O)(O)O)cc2)C(=O)N1Cc1cccc2cccnc12 — half-life (human, plasma; intravenous infusion, 280 mg/m2 over 4 h, median, single dose): 0.5 h
Cc1nc2ccc(F)cc2n1-c1nc(N)c(F)c(Nc2ccc(C(F)(F)F)cc2)n1 — half-life (human patients, plasma; oral, 400 mg twice weekly, cycles 1 and 2 pooled): 10.1 h
COC(=O)C(Cc1cccc(OC)c1C)NC(=O)CNCc1ccccc1 (stereo not drawn) — half-life (human; 1 µM): > 2 h
CC(C)NC(=O)COc1cccc(-c2nc(Nc3ccc4[nH]ncc4c3)c3ccccc3n2)c1 — half-life (human male, plasma; oral, 200 mg, day 5, fed, alone, geometric mean): ~6.2 h
C=CC(=O)NC1CCN(c2ncc3ncnc(Nc4ccc(Oc5ccc6c(c5)ncn6C)c(C)c4)c3n2)CC1 — half-life (human, male, plasma; oral, 30 mg single dose, fasted, geometric mean): 36.3 h
C[C@H]1[C@H](OC(=O)CCC(=O)O)O[C@@H]2O[C@@]3(C)CC[C@H]4[C@H](C)CC[C@@H]1[C@@]24OO3 — half-life (human, both sexes, plasma; oral, dose not given, non-fixed combination): 0.59 h
COc1ccc([C@@H](O)c2cc(-c3ncnc4cc(N5CCOCC5)ccc34)c(F)cc2Cl)nn1 — half-life (human; oral, 250 mg once daily, single dose): 7.79 h
COc1cc(C(=O)NC2CCN(C)CC2)c(F)cc1Nc1ncc(C(F)(F)F)c(Oc2cccc3c2C(=O)N(C)C3)n1 — half-life (human patients, plasma; oral, 100 mg single dose, geometric mean): 22.2 h
Nc1ccn([C@@H]2O[C@H](CO)[C@@H](O)C2(F)F)c(=O)n1 — half-life (HPLC-UV; human, plasma; intravenous, 800 mg/m^2, median, before paricalcitol): 2.85 h
Cl.[2H]C([2H])([2H])CC(=O)c1cnc(NC(=O)C2CC2)cc1Nc1cccc(-c2ncn(C([2H])([2H])[2H])n2)c1OC — half-life (geometric mean; human; oral, 5 mg single dose, fasted, liquid): 8.66 h
CCOc1c([C@H](C)n2nc(C)c3c(N)ncnc32)cc(Cl)c(F)c1[C@@H]1CNC(=O)C1 — half-life (human patients, plasma; oral, 15 mg once daily, cycle 1 day 15, monotherapy, geometric mean): 10.8 h
Cc1cc(OCCOCCC(F)(F)P(=O)(O)O)ccc1CCc1cnc2c(N)nc3cc(CCC(=O)O)ccc3c2c1 — half-life (human, serum; intratumoral, 200 µg every 2 weeks, cycle 1 day 1): 18.4 h
CC(C)c1nc(N(C)S(C)(=O)=O)nc(-c2ccc(F)cc2)c1/C=C/[C@@H](O)C[C@@H](O)CC(=O)O — half-life (human, plasma; oral, 20 mg, day 2, mean, single agent): 15 h
CC(C)[C@H](N)C(=O)NCCCS(=O)(=O)O — half-life (human, plasma; oral, 340 mg twice daily days 8-13, once daily day 14, day 14, fed, capsule): 1.08 h
C[C@H](Oc1ccc(Br)cc1-c1ccon1)C(=O)O — half-life (LC-MS/MS, non-compartmental; human, plasma; 400 mg once daily, day 10, multiple ascending dose, mean): 4.82 h
Cc1noc(C)c1-c1cc(C(O)(c2ccccn2)c2ccccn2)c2nc(C3CC3)[nH]c2c1 — half-life (human patients, plasma; oral, 1.4 mg, cycle 1 day 8, monotherapy): 28.7 h
N#Cc1cc(NC(=O)[C@H]2c3ccccc3C(=O)N(CC(F)(F)F)[C@@H]2c2cccnc2)ccc1F — half-life (human, plasma; oral, 75 mg, median): 17.6 h
C[C@H]1[C@@H](O)O[C@@H]2O[C@@]3(C)CC[C@H]4[C@H](C)CC[C@@H]1[C@@]24OO3 — half-life (human, both sexes, plasma; oral, dose not given, fixed-dose combination): 1.59 h
C#C[C@]1(COP(=O)(O)OP(=O)(O)O)O[C@@H](n2cnc3c(N)nc(F)nc32)C[C@@H]1O — half-life (refers to: islatravir triphosphate; human, PBMC; oral, 400 mg single dose): 138 h
CO[C@@H]1[C@H](OC(=O)N2CC(CCN3CCOCC3)C2)CC[C@]2(CO2)[C@H]1[C@@]1(C)O[C@@H]1CC=C(C)C — half-life (humans, plasma; subcutaneous, 0.6 mg twice weekly, first dose): 0.9 ± 0.57 h
CC#CC(=O)N1CC[C@@H](n2c(=O)n(-c3ccc(Oc4ccccc4)cc3)c3c(N)ncnc32)C1 — half-life (human, fasting, plasma; oral, 160 mg once daily, cycle 1 day 28): ~5.4 h
CN[C@@H](C)C(=O)N[C@H]1CN(S(=O)(=O)c2cccc(S(=O)(=O)N3CC[C@H]4CC[C@@H](C(=O)NC(c5ccccc5)c5ccccc5)N4C(=O)[C@@H](NC(=O)[C@H](C)NC)C3)c2)CC[C@H]2CC[C@@H](C(=O)NC(c3ccccc3)c3ccccc3)N2C1=O — half-life (LC-MS/MS, noncompartmental; human, plasma; 30 mg, cycle 1 day 1): 3.02 ± 2.43 h

Excerpt of the above:
C#Cc1cccc(Nc2ncnc3cc(OCCOC)c(OCCOC)cc23)c1 — half-life (human patients, plasma; oral): ~20 h
CO[C@H]1C[C@@H]2CC[C@@H](C)[C@@](O)(O2)C(=O)C(=O)N2CCCC[C@H]2C(=O)O[C@H]([C@H](C)C[C@@H]2CC[C@@H](OC(=O)NCCOCCOCCOCCOCCOCCOCCOCCOCCC(=O)N3CCc4cc(Cn5nc(-c6ccc7oc(N)nc7c6)c6c(N)ncnc65)ccc4C3)[C@H](OC)C2)C[C@@H](O)[C@H](C)/C=C(\C)[C@@H](O)[C@@H](OC)C(=O)[C@H](C)C[C@H](C)/C=C/C=C/C=C/1C — half-life (human, plasma; intravenous, 12 mg, cycle 1 day 1, arithmetic mean): 5.4 h
CCOc1c([C@H](C)n2nc(C)c3c(N)ncnc32)cc(Cl)c(F)c1[C@@H]1CNC(=O)C1 — half-life (human patients, plasma; oral, 15 mg once daily, cycle 1 day 15, monotherapy, geometric mean): 10.8 h
